Measured values collected from several papers.
Each numbered part is a random draw from the data of one study; scales do not carry over between parts. Positions count from the first letter of the parent shown.

Set 1 — method: DHFR PCA, deep sequencing; medium: yeast; with: (+)-ABA 4.8 µM; baseline: wild-type fitted maximum; direction: higher = stronger binding; measurement: relative binding score
Target: ABI1, truncated, D143A, DHFR fusion (Arabidopsis thaliana)
Setting: methotrexate growth selection, single substitutions
Starting sequence: PYL1, truncated, DHFR fusion (Arabidopsis thaliana); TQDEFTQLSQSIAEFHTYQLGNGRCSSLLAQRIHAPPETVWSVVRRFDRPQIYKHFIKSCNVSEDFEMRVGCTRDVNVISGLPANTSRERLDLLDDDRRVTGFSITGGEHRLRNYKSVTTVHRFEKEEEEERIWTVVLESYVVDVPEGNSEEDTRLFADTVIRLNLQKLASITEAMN
T101E: -13.7%
T120S: 90.6%
P83W: -0.0117%
R32F: 56.2%
S117F: -11.3%
R99Y: 92.4%
F103N: -13.6%
V143W: -7.35%
R132Q: 92.4%
K116S: 72.4%
E125R: 74.5%
V44K: -2.14%
K126G: 93.7%
L164Q: 70.4%
E64D: 77.1%
D48W: 8.33%
E67R: 61.4%

Set 2 — method: competition protein-binding microarray; molecule type: double-stranded DNA, one strand shown; medium: in vitro; concentration: 2 µM; with: Cbf1 competitor, 0.05 µM; direction: higher = stronger binding; measurement: fluorescence intensity; constant ends, left off below: … GTCTTGATTCGCTTGACGCTGCTG
Target: Phosphate system positive regulatory protein PHO4, full length, GST-tagged (PHO4, Saccharomyces cerevisiae, UniProt P07270, residues 1-312)
Setting: whole 60-bp probe, lowest competitor level
Residues (chain): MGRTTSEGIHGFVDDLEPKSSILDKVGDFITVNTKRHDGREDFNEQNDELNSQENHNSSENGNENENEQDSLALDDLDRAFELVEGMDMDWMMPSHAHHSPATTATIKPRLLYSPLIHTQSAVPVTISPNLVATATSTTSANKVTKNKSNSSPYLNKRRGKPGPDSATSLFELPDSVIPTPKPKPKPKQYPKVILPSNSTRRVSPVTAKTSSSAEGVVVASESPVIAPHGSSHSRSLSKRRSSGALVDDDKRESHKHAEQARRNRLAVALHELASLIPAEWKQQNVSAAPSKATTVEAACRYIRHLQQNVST
ACCCTGCCCTCATATCACCTGCGTTTCCGTTAAACT: 5420 a.u.
AGTCTGTGCTAGTCCCACGTGTGAATGCCAAGGTTG: 17900 a.u.
TGGCATGAGTGGCAGCATGTGCCTCATATCCATTGG: 12700 a.u.
TGCGCAACAACTTTTCACGTGCTTTTATGTCTAGAA: 15800 a.u.
CATACCCAACCTTGTCACGCGACTTAAGATATTTGT: 10200 a.u.
CTTTCCCGATCTTGATATGTGGGTGTAGCACATTTG: 4980 a.u.
ATTTTGCTAATTAAAGGCGTGCCGAAGCGGCGACTA: 9770 a.u.
GTCTTGTCTCATTGCACGGTGGGTGTCCCCACTTCA: 7210 a.u.
TGGTTAACTAAACGTAATGTGACAGTATCATTGAAA: 4220 a.u.
TTGACCGATTTTCTGATCATGCAAAACTTTAGAGCT: 3940 a.u.
CGTCCTAGTGATTGTAGCGTGGGTGCCATGAGGAAG: 8980 a.u.
CTTCTGTAAATTTGCGTGGTGGGTGGACGCGCCCCG: 5470 a.u.
TGCTTCTTTGAAAAGCACATGCCGTTTCACCACAGG: 10500 a.u.
CATACCCAACCTTGAACTGTGGGTGAAGATATTTGT: 4100 a.u.
AAATTACTAAGTTGTGTGGTGGGTGACGCCGTATGA: 5640 a.u.
CTCAGTGGTTAGAGCTTCGTGCTTTTAGCAACATTC: 7360 a.u.
TTCTTTGGTGATTCTGGCGTGATGGAACATTCGTAT: 5570 a.u.
TAAGGTACTATCTTTGACGTGGCAATGCGGGATATT: 4820 a.u.

Set 3 — target: CCNB2, cyclin fold, Cln2 fusion (human); method: yeast growth competition, sequencing; medium: yeast; setting: weak parent motif; baseline: not given; direction: higher = stronger binding; measurement: normalised enrichment score
Starting sequence: INSM1 docking peptide (human); PKAIRKLHFEDEV
PKAIRKLMFEDEV [H8M]: 0.00919
PKAIRKLHFGDEV [E10G]: 0.352
PKPIRKLHFEDEV [A3P]: -0.0432
PKAKRKLHFEDEV [I4K]: 0.708
PKAIRILHFEDEV [K6I]: 0.173
PNAIRKLHFEDEV [K2N]: 0.0942
PKWIRKLHFEDEV [A3W]: -0.0966
PKAIRKLHFEDAV [E12A]: 0.493
PVAIRKLHFEDEV [K2V]: 0.0676
PKAIRKLHSEDEV [F9S]: 0.299
PKAIRKLHFEDDV [E12D]: 0.266
PKAERKLHFEDEV [I4E]: 0.00165
PKAIHKLHFEDEV [R5H]: -0.109
PKAIRKLHFCDEV [E10C]: 0.214
PKAIRKLHFADEV [E10A]: 0.46
PKAIRALHFEDEV [K6A]: 0.0474
PKAIRTLHFEDEV [K6T]: 0.203
PKAIRKLHFEKEV [D11K]: 0.605
PKAITKLHFEDEV [R5T]: 0.0796
PKAIRKDHFEDEV [L7D]: -0.176
PKAIRKLHQEDEV [F9Q]: 0.0262

Set 4 — method: RNA Bind-n-Seq; molecule type: RNA; medium: in vitro; concentration: 200 nM; setting: whole 134-nt RNA, ends assumed; with: 150 mM KCl; baseline: input library; direction: higher = stronger binding; measurement: log2 enrichment
Target: Ras GTPase-activating protein-binding protein 1, full length (G3BP1, Homo sapiens, UniProt Q13283)
Chain of UniProt Q13283 (whole entry, looked up): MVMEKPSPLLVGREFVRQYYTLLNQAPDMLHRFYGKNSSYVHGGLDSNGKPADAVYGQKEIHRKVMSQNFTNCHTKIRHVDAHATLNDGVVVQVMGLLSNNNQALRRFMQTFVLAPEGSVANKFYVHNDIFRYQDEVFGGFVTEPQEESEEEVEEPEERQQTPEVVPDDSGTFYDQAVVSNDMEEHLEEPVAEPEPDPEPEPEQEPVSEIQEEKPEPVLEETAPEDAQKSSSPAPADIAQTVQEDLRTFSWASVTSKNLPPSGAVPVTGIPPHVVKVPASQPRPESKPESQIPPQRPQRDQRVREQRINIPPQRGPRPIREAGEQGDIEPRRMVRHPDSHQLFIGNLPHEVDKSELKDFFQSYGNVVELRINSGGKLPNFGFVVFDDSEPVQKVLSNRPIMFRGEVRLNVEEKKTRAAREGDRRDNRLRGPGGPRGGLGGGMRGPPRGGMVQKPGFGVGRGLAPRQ
Constant ends, left off below: GGGAGUUCUACAGUCCGACGAUC … UGGAAUUCUCGGGUGUCAAGG
CCUCAAGUCCUGUGCUACACAUCGUAUGUACCGAAUCGGGUGGGGUGGGUGGGAAAGUAUUAUGUUACGCCGUUCGGAUCUGCACUUCCA: 1.38
AAGUCCUGUGCUACACAUCGUAUGUACCGAAUCGGAAAGGAAAAAAAGGUUUUUGGAAAGUAUUAUGUUACGCCGUUCGGAUCUGCACUU: -1.54
UGGCCCUGGUGGCAUGCGGGGAGGAAGAGGUGGCCUCCUGGAUCGUGGUGGUCCCGGUGGAAUGUUCAGAGGUGGCCGUGGUGGAGACAG: 0.143
GUCCUGUGCUACACAUCGUAUGUACCGAAUCGGGGAAAGGGGUUUUUGGGGUUUGGGGAAAGUAUUAUGUUACGCCGUUCGGAUCUGCAC: 0.447
UGUGCUACACAUCGUAUGUACCGAAUCGGGGCCCCCCCGGCCCCCCCGGGGCCCCCCCGGGGAAAGUAUUAUGUUACGCCGUUCGGAUCU: -1.6
UACCUGAUCAAUGACAGAGCCUUCUGAGGACAUUCCAAGACAGUAUACAGUCCUGUGGUCUCCUUGGAAAUCCGUCUAGUUAACAUUUCA: -1.89
CACAGACGACACGCACCCACACAGACACAGAGGGAAGGGGUUGGGAUGGGGACAGGGUGCACAGCAGGGCGGGGUAGGACCCCAGCCCCU: 1.83
AGUCCUGUGCUACACAUCGUAUGUACCGAAUCGGGAAAAAAAGGGAAAAAGGGUGGGAAAGUAUUAUGUUACGCCGUUCGGAUCUGCACU: 0.0759
CACAGACAGCACGCACCCACACAGACACAGAGGGAAGGGGUUGGGAUGGGGACAGGGUGCACAGCAGGGCGGGGUAGGACCCCAGCCCCU: 1.77
UAACUUUAGAGGAGGAUCUGAUGGAUAUGGCAGUGGACGUGGAUUUGGGGAUGGCUAUAAUGGGUAUGGAGGAGAACCUGGAGGUGGCAA: 0.203
UGGCCCUGGUGGCAUGCGGGGAGGAAGAGGUGGCCUCAUGGAUCGUGGUGGUCCCGGUGGAAUGUUCAGAGGUGGCCGUGGUGGAGAAAG: 0.342
AAGUCCUGUGCUACACAUCGUAUGUACCGAAUCGGUUUUUUUGGAAAGGUUUUUGGAAAGUAUUAUGUUACGCCGUUCGGAUCUGCACUU: -1.4
CUCAAGUCCUGUGCUACACAUCGUAUGUACCGAAUCGGCCGGGGCCGGCCGGGAAAGUAUUAUGUUACGCCGUUCGGAUCUGCACUUCCA: -0.434
UUAUUCUGUGUGACACCUGCCCUCGUGCCUACCACCUCGUCUGCCUUGAUCCUGAGCUUGACCGGGCUCCAGAGGGCAAAUGGAGCUGCC: 0.705

Set 5 — method: protein binding microarray; molecule type: double-stranded DNA, one strand shown; medium: in vitro; concentration: not given; baseline: not given; direction: higher = stronger binding; measurement: E-score
Target: Histone acetyltransferase KAT6A, winged helix 1, GST fusion (KAT6A, Homo sapiens, UniProt Q92794, residues 1-85)
Setting: 8-mer, flanks averaged, mean of 2 arrays, mostly near background
Construct (chain): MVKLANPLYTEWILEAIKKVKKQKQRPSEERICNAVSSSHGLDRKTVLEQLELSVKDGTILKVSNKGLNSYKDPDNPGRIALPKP
GCTTAAGA: 0.0799
ATATCAAA: -0.13
GTGCGCCA: 0.301
GCCAGGAA: 0.0566
TAGACTAA: -0.0542
TAGCGTAA: 0.148
CTGATAGC: 0.0833
CACTTCAG: -0.249
GAAAATTA: -0.184
TAACACCA: -0.212
AGTGCGAC: 0.243
GGTAAGAA: -0.0381
CGATTGTA: -0.0283
CTGCAACC: -0.0786
AAGTAGAC: -0.208
GTATGAAA: -0.0164
AAGGCGAT: -0.0126
GTTGCAAA: -0.181
CAATATAG: -0.0792
CAGTAACG: 0.144

Set 6 — method: protein-binding microarray; molecule type: double-stranded DNA, one strand shown; medium: in vitro; concentration: 2540 nM top; setting: 60-bp whole probe; with: salmon DNA 0.4 mg/ml; baseline: random background probes; direction: higher = stronger binding; measurement: fitted relative affinity; constant ends, left off below: GCCTAGCAC … GTCTTGATTCGCTTGACGCTGCTG
Target: Interferon regulatory factor 3, full length, phosphomimetic (IRF3, Homo sapiens, UniProt Q14653, residues 1-427, S386D/S396D/S398D/S402D/T404D/S405D)
Construct (chain): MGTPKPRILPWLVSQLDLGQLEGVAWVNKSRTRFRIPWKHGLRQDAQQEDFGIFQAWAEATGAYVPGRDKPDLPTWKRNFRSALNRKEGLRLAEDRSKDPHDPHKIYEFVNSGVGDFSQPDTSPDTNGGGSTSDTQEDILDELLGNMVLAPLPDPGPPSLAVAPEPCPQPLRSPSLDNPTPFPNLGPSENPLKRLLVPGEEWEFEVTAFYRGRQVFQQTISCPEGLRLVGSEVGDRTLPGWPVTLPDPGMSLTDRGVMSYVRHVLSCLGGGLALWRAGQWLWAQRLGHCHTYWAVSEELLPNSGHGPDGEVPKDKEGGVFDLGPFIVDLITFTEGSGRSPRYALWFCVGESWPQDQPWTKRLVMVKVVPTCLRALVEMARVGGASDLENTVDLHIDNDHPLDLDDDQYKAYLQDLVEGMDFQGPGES
TTCTACTTCTCTTTTGGCTTGTGCTAG: 2.56 z-score
GATGGACTGGGTTTCGGGACGTGCTAG: 1.06 z-score
GACGGACTGGGGTGTCGGGACGTGCTA: -0.517 z-score
ATAGGTTCCGGTTTCGGTTAGTGCTAG: 7.56 z-score
GACGATGTCGGGACTGGAGACGTGCTA: -0.502 z-score
CTTTCTTTTATGCTCTTTCTGTGCTAG: 5.22 z-score
TCCAGCCTGTTTCCAGCAGGGTGCTAG: 0.967 z-score
TTAGACCTCAGTTTCGATTAGTGCTAG: 2.75 z-score
TTAGGTTTCGAGACTGGGTTAGTGCTA: 3.09 z-score
GACGGTTTCGGTATCGTGACGTGCTAG: 8.07 z-score
TTTACTTTCTGAATGCCCTTGTGCTAG: 5.57 z-score
CCAAGGTTCAAGTTTACCCATGTGCTA: 0.11 z-score
TTAGGTCTCCTACTGATTTAGTGCTAG: 0.703 z-score
GACGATTTCAGTTTCCAGACGTGCTAG: 5.6 z-score
GTCCCTATCTCCTCACAGACCGTGCTA: 2.3 z-score
GACGGTTTCGACACTGGGCACGTGCTA: 3.24 z-score
GACGATTTCAGACTGCAGACGTGCTAG: 1.1 z-score
GACGGTCTCCTTTTCCTTACGTGCTAG: 4.96 z-score

Excerpt of the above (set 6):
GACGATGTCGGGACTGGAGACGTGCTA: -0.502 z-score
TTAGGTCTCCTACTGATTTAGTGCTAG: 0.703 z-score
GACGGTTTCGGTATCGTGACGTGCTAG: 8.07 z-score
GATGGACTGGGTTTCGGGACGTGCTAG: 1.06 z-score
TTAGACCTCAGTTTCGATTAGTGCTAG: 2.75 z-score
GACGGTCTCCTTTTCCTTACGTGCTAG: 4.96 z-score
GACGGTTTCGACACTGGGCACGTGCTA: 3.24 z-score
GACGATTTCAGACTGCAGACGTGCTAG: 1.1 z-score
TTAGGTTTCGAGACTGGGTTAGTGCTA: 3.09 z-score
GTCCCTATCTCCTCACAGACCGTGCTA: 2.3 z-score
CTTTCTTTTATGCTCTTTCTGTGCTAG: 5.22 z-score
